Measured values gathered from unrelated publications.
Compare with care: the assays were run in different laboratories. Several values in a cell are separate wells, animals, samples, runs or records. Numbers after ± are the reported error.
Chain of UniProt P21333 (whole entry, looked up): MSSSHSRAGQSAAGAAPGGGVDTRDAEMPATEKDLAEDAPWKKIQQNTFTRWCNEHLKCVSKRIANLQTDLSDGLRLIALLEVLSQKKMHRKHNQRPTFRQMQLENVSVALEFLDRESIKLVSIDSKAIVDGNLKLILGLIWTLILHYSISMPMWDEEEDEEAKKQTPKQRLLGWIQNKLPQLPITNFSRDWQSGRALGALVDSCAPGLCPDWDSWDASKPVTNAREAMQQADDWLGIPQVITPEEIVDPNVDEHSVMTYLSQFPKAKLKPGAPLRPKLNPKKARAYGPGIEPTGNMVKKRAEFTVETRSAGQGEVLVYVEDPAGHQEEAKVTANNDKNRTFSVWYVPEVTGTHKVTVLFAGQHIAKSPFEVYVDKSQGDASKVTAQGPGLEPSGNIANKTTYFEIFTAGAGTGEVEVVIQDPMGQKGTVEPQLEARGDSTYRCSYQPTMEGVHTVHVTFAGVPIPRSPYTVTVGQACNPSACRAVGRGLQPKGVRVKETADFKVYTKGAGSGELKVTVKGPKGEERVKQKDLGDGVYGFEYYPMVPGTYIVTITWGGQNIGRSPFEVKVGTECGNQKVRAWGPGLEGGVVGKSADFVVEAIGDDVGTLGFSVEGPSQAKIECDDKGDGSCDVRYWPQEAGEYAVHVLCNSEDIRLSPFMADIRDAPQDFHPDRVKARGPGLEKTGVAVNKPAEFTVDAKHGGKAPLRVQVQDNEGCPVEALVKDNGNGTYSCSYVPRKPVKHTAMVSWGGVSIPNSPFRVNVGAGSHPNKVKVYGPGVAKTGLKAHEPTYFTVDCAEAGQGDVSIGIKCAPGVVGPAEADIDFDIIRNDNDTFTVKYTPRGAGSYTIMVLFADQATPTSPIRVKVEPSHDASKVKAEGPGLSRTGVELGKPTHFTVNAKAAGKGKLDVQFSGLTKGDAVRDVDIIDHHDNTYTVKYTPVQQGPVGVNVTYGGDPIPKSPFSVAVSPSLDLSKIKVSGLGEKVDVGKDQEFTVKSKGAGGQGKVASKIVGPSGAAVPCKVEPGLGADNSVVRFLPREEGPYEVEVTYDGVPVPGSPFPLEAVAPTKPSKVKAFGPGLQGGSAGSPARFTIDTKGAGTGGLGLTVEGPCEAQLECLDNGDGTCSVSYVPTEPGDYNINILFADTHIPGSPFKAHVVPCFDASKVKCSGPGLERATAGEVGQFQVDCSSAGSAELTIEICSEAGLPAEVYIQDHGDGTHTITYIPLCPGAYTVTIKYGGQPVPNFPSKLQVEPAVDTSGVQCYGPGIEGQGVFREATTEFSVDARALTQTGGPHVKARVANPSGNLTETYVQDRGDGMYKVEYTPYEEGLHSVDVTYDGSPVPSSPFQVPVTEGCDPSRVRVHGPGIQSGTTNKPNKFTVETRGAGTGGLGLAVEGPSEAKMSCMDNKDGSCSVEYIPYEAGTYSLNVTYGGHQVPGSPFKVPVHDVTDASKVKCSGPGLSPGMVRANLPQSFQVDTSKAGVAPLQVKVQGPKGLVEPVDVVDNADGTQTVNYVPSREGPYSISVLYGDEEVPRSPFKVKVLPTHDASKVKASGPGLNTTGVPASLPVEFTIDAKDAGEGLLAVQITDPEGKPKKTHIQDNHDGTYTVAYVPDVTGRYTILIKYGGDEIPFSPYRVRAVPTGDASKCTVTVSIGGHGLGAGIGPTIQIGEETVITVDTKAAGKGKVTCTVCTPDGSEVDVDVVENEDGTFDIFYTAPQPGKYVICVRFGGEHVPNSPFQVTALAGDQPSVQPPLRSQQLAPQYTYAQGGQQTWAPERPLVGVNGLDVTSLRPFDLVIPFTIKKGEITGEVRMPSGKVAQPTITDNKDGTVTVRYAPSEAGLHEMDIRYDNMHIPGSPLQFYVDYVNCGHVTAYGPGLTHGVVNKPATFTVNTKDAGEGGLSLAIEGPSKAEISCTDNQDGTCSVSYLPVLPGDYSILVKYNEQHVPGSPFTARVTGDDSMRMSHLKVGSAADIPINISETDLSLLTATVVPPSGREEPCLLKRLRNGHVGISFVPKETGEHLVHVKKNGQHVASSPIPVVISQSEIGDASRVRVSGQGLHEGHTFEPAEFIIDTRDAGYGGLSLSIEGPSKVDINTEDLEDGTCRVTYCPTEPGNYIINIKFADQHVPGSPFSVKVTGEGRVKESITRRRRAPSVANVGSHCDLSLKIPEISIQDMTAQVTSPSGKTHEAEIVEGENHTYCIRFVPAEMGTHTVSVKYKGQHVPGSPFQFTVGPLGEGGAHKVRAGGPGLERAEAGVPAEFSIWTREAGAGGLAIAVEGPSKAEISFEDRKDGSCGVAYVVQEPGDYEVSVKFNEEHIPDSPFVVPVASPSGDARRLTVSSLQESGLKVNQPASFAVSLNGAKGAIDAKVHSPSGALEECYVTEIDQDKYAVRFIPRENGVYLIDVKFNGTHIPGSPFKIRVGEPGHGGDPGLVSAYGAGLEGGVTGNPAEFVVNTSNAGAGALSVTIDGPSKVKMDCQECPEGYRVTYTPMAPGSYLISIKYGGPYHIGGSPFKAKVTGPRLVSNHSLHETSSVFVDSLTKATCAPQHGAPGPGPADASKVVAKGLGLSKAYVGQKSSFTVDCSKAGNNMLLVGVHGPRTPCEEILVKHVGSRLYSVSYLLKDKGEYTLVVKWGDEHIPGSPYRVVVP

CCCCC1(CCCC)CN(c2ccccc2)c2cc(SC)c(OCC(=O)N[C@@H](C(=O)NCC(=O)O)c3ccccc3)cc2S(=O)(=O)C1 — serum LDL-C (item: LDL cholesterol; human, serum; 10 mg once daily, day 9): 90.5 mg/dL
C[C@H]1O[C@@H](O[C@H]2CC[C@@]3(C)[C@@H](CC[C@]4(C)[C@@H]3C=C[C@]35OC[C@@]6(CCC(C)(C)C[C@H]63)[C@@H](O)C[C@]54C)[C@]2(C)CO)[C@H](O)[C@@H](O[C@@H]2O[C@H](CO)[C@@H](O)[C@H](O)[C@H]2O)[C@H]1O — steatosis area (H&E staining; hepatic SIRT1 knockdown mice, no ethanol, liver; dose not given, AAV8-TBG-shRNA, high dose): 11.5% and 10.7% and 9.62% and 12.7% and 10.9%
NNc1ccccc1 — normalised absorbance (hydrazine ligation kinetics, absorbance; concentration not given, 45 s, added: 2-formylphenylboronic acid): 0.914
CN1CCN(S(=O)(=O)c2cc([N+](=O)[O-])ccc2N(CCOS(C)(=O)=O)CCOS(C)(=O)=O)CC1 — event-free survival (NSG mice, T-ALL PDX sample F; intraperitoneal, 25 mg/kg, single mouse trial): > 332 days
[Cl][Ru-]([Cl])([Cl])[Cl].[Na+].c1ccc2[nH]ncc2c1.c1ccc2[nH]ncc2c1 — duration of disease control (CT, RECIST 1.1; human; 320 mg/m2): 98 weeks
C[C@H]1CN(c2n[nH]c3nc(N[C@H]4CC[C@H](NS(=O)(=O)CCC(F)(F)F)CC4)ncc23)CCO1 — relative abundance (Filamin-A (Homo sapiens, UniProt P21333); competitor, Kinobeads competition; human cell extract; 0.8 µM; reference: vehicle): 1.44
COc1cc2c(Oc3ccc4[nH]c(C)cc4c3F)ccnc2cc1OCC1(N)CC1 — grade 1 or 2 Epistaxis (paediatric recurrent refractory sarcoma; 12 mg): 18.2%
CC[C@@H](C)[C@@H](NC(=O)[C@@H](Cc1ccc(O)cc1)NC(=O)[C@H]1CCCN1C(=O)[C@@H](CCCNC(=N)N)NC(=O)[C@H](N)Cc1c[nH]cn1)C(=O)N[C@H](C)C(=O)N[C@H](Cc1c[nH]cn1)C(=O)N[C@H](CCCNC(=N)N)C(=O)N[C@H](CCCCNC(=O)c1cccc(S(=O)(=O)F)c1)C(=O)N[C@H](Cc1ccc(O)cc1)C(=O)N[C@H](CO)C(=O)N[C@H](Cc1ccccc1)C(N)=O — IFN-γ+ CD8+ T cell frequency (ex vivo flow cytometry; B16 tumour-bearing mice, tumor; dose not given): 31.1% and 51.2% and 22.2% and 22.4% and 46.7%
FC(F)(F)c1ccc2c(c1)[C@@H]1CNC[C@H]2C1 — ethanol preference (intermittent two-bottle choice; Wistar rat, 20% ethanol drinking; subcutaneous, 10 mg/kg, 6 h; reference: ethanol over total fluid intake): 29 ± 3%
CN1CC[C@@H](c2c(O)cc(O)c3c(=O)cc(-c4ccc(C(F)(F)F)cc4Cl)oc23)[C@@H]1CO — patients with adverse event (item: Vomiting; B-cell malignancies or AML; oral, 100 mg, continuous dosing): 12.5%
Cc1nc(Nc2ccc(CC(=O)O)cc2)nc(Nc2ccc(F)c(C(F)(F)F)c2)c1C — mRNA level (item: PDE4D; C57BL/6J mice, high-fat diet, liver; intraperitoneal, 0.3 mg/kg daily, 60% fat diet 12 weeks, dosed last four; reference: vehicle): no effect
CO[C@H]1C[C@@H]2CC[C@@H](C)[C@@](O)(O2)C(=O)C(=O)N2CCCC[C@H]2C(=O)O[C@H]([C@H](C)C[C@@H]2CC[C@@H](OC(=O)NCCOCCOCCOCCOCCOCCOCCOCCOCCC(=O)N3CCc4cc(Cn5nc(-c6ccc7oc(N)nc7c6)c6c(N)ncnc65)ccc4C3)[C@H](OC)C2)C[C@@H](O)[C@H](C)/C=C(\C)[C@@H](O)[C@@H](OC)C(=O)[C@H](C)C[C@H](C)/C=C/C=C/C=C/1C — AEs causing dose modification (phase 1 dose escalation; advanced solid tumour patients; intravenous, 10 mg weekly, grade ≥3): 50%
CC[C@H](C)[C@@H]1NC(=O)[C@@H]2CCCN2C(=O)[C@H](CC(C)C)NC(=O)[C@H](CC(C)C)NC(=O)CNC(=O)[C@@H](NC(=O)[C@@H](NC(=O)[C@H](CC(=O)O)NC(=O)CNC(=O)[C@@H](NC(=O)[C@H](C)NC(=O)CNC(=O)[C@H](CCCCN)NC(=O)[C@H](CC(C)C)NC(=O)[C@H](CC(C)C)NC(=O)[C@H](CCCCN)NC(=O)CNC(=O)[C@@H](NC(=O)[C@@H](N)CC(C)C)C(C)C)C(C)C)C(C)C)CSSC[C@@H](C(=O)O)NC1=O — log2 fold change (RNA-seq, item: Rhog mRNA; mouse traumatic brain injury, frontal cortex and hippocampus; dose not given; reference: TBI plus compound vs TBI): -1.32

A few entries again:
C[C@H]1O[C@@H](O[C@H]2CC[C@@]3(C)[C@@H](CC[C@]4(C)[C@@H]3C=C[C@]35OC[C@@]6(CCC(C)(C)C[C@H]63)[C@@H](O)C[C@]54C)[C@]2(C)CO)[C@H](O)[C@@H](O[C@@H]2O[C@H](CO)[C@@H](O)[C@H](O)[C@H]2O)[C@H]1O — steatosis area (H&E staining; hepatic SIRT1 knockdown mice, no ethanol, liver; dose not given, AAV8-TBG-shRNA, high dose): 11.5% and 10.7% and 9.62% and 12.7% and 10.9%
NNc1ccccc1 — normalised absorbance (hydrazine ligation kinetics, absorbance; concentration not given, 45 s, added: 2-formylphenylboronic acid): 0.914
